Assay results pooled from the literature.
Each numbered part is a random draw from the data of one study; scales do not carry over between parts. Changes are numbered by the printed parent chain.

Set 1
Target: RING finger protein unkempt homolog, zinc fingers 1-6, GST-SBP tag (UNK, Homo sapiens, UniProt Q9C0B0, residues 30-357)
Method: RNA Bind-n-Seq
Molecule type: RNA
Sample: in vitro
Tested at: not given
Setting: RNA with constant flanks, ends assumed
Baseline: input RNA pool
Reading: higher = stronger binding
Measurement: bound/input enrichment
Shared flanks, not repeated: GGGAGUUCUACAGUCCGACGAUC … CAACAGAGGAUUGAGCAUCA
Target sequence (chain): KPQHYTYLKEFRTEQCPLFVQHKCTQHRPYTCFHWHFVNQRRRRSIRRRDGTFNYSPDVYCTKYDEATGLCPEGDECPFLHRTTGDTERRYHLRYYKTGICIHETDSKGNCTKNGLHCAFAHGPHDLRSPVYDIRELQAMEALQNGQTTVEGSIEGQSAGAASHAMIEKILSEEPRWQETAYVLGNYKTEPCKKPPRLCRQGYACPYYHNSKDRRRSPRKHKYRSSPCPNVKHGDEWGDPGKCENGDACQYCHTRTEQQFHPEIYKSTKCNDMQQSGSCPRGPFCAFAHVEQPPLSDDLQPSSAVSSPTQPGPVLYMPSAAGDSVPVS
GGCUCCCAUUGUCUCCGCAGAUGCCUCCUGGUCCUGCUACGGUGCUGGGGUUGUUCAGUUUCCGGGGACACGCUCCUAUUCUUUUCUUCGAGACGUCCCGCGGCCGAGAACGGGGUUCUA: 0.086 ratio
UGCUGGAACGCAGCAGGAGACAAAGUUGGAGCCAGUGCUUCGGACGGUUCAGUUUGUGUCUCCGACCUUCGGAAAUAGCGUUACUAGUUGGAAGCCAUGGACCGACUAUGAAUGUGUACA: 0.21 ratio
AUGAACUUUCAGGCAACACUGUUAUUAAAUGACCCAGACAGACCUGUCCUUAUAUAAUUGCCGCUUUUCAGCACAAGGAUCCUAAAAGAUGGCAGCACCCACUUCUAAAAUCAUACUUGA: 0.208 ratio
AAAAUUGGUAUCGUUGGAUUGCCAAAUGUUGGGAAGUCUACCUUCUUCAAUGUAUUAACCAACCGUCAGGCUUCAGCAGAAAACUUCCCAUUCUGCACUAUUGAUCCUAAUGAGAGCAGA: 0.2 ratio
AAUAAAUUGGAAUUUAAAAAUAUCGAUAUCACCAUGAUUUAAUCCAGAUCUGGGAUUAUGCCGCUAAACAUUGUGAUGAUUAUUAUUUAAAACCAUUAUUUAAUAAGAGUAAAAAUAUGU: 0.668 ratio
AGUAGAGAUUCAGCACAGUUGGACUUCAGGAACAGGGACAUACAUUCUGGGGAUUUUCGGGACCGAGAAGGACCACCUAUGGACUACAGGGGUGGAGAUGGUACUCCUAUGGAUUAUAGA: 0.692 ratio
CACAAGAUGGAGCAGGAAAUGACCCGGUUACAUCGGAGAGUGUCAGAGGUGGAGGCUGUGCUCCGUCAGAAGGAGGUGGAGCUGAAGGCCUCUGAGACUCAGAGAUCCCUCCUGGAGCAG: 0.1 ratio
UCUAAGGAAGACAAAAUGAAAGAAAGUGAAACAUUUUCCGAUUCAUCUCCCAUUGAGAUAACCGAUGAGUUUCCCACAUUUGUCAGUGCUAAAGAUGAUUCUCCUAAGGAGUACACUGAC: 0.0674 ratio

Set 2
Molecule: PhoQ, residues 284 288 289 292 302 303 AGCYAI
Method: Sort-seq
Measured: YFP reporter
Sample: E. coli
Setting: PhoQ-PhoP variant library
Added: 10 µM Mg2+
Baseline: high Mg2+ state
Reading: higher = stronger signaling
Measurement: fold induction
PhoP, residues 12 14 15 18 19 QQAYL (Escherichia coli, UniProt P23836): 2.27
PhoP, residues 12 14 15 18 19 LFHKL (Escherichia coli, UniProt P23836): 6.73
PhoP, residues 12 14 15 18 19 GMGLL (Escherichia coli, UniProt P23836): 3.78

Set 3
Target: CCND3, cyclin fold, Cln2 fusion (human)
Method: yeast growth competition, sequencing
Sample: yeast
Setting: weak parent motif
Baseline: not given
Reading: higher = stronger binding
Measurement: normalised enrichment score
Starting sequence: PPP1R3F docking peptide (human); VAPRRVLFADEAL; partner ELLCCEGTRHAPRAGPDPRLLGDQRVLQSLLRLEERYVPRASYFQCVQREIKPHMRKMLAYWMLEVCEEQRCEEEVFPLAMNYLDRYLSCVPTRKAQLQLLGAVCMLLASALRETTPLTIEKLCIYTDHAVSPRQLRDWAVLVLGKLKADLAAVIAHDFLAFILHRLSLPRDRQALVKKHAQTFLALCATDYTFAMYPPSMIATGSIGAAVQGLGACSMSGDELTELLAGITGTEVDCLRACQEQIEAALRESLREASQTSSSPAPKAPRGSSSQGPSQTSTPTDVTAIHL
R5K: -0.148
D10A: 0.069
E11A: 0.164
R5A L7A: -0.0933
R5K F8L: 0.404
V6A: 0.0185
L13A: 0.0761
R4A: 0.134

Set 4
Target: CREB3L1, bZIP domain (human)
Method: DHFR protein complementation
Sample: yeast
Setting: single substitutions, most at no-binding floor
Baseline: wild-type JUN-FOS pair
Reading: higher = stronger binding
Measurement: binding fitness
Starting sequence: JUN, bZIP domain (human); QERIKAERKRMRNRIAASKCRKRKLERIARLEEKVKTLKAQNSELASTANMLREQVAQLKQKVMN; partner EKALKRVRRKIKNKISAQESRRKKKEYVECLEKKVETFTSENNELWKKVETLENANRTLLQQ
V56H: -1.47 natural log
A57H: -1.43 natural log
I28G: -1.43 natural log
A57N: -1.46 natural log
A57G: -1.33 natural log
N42I: -1.53 natural log
Q55T: -1.42 natural log
A46G: -1.39 natural log
E33C: -1.43 natural log
L45Q: -1.42 natural log
K34A: -1.42 natural log
N42S: -1.46 natural log
N42Q: -1.4 natural log
L45E: -1.51 natural log
M51N: -1.21 natural log
L38R: -1.47 natural log
Q55W: -1.31 natural log
A57Q: -1.34 natural log
T48Q: -1.4 natural log
S43R: -1.25 natural log
S47K: -1.49 natural log
T48R: -0.939 natural log
L31S: -1.36 natural log
A40T: -1.31 natural log

Set 5
Target: ABI1, truncated, D143A, DHFR fusion (Arabidopsis thaliana)
Method: DHFR PCA, deep sequencing
Sample: yeast
Setting: methotrexate growth selection, single substitutions
Added: (+)-ABA 17 µM
Baseline: wild-type fitted maximum
Reading: higher = stronger binding
Measurement: relative binding score
Starting sequence: PYL1, truncated, DHFR fusion (Arabidopsis thaliana); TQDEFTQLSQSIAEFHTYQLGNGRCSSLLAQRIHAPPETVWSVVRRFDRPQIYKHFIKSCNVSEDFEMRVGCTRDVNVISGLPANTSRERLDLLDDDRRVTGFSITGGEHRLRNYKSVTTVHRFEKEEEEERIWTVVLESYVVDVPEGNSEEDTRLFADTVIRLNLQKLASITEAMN
Y53L: -7.31%
T86E: 56.7%
E139Y: 81.9%
Q2W: 75.1%
P36S: 77.6%
L20F: 71.4%
S63P: 90.6%
T120R: -3.38%
L156D: 65.1%
M68N: 73.3%
A84P: 20.7%
T135G: -0.778%
E130Q: 84.6%
H55R: 93.3%
D159G: 41.2%
P36F: 42.5%
P83N: -5.26%
L91M: 71.1%

Some of these lines once more (set 4):
L45E: -1.51 natural log
M51N: -1.21 natural log
L38R: -1.47 natural log
Q55W: -1.31 natural log
A57Q: -1.34 natural log
T48Q: -1.4 natural log
S43R: -1.25 natural log
S47K: -1.49 natural log
